Measured values pooled from the literature.
Every numbered part comes from another study and shows a few of its results, in no order. Values joined by “and” are separate records of one study, mostly repeats; a detail may differ.
UniProt Q96SW2, sequence (whole entry, looked up): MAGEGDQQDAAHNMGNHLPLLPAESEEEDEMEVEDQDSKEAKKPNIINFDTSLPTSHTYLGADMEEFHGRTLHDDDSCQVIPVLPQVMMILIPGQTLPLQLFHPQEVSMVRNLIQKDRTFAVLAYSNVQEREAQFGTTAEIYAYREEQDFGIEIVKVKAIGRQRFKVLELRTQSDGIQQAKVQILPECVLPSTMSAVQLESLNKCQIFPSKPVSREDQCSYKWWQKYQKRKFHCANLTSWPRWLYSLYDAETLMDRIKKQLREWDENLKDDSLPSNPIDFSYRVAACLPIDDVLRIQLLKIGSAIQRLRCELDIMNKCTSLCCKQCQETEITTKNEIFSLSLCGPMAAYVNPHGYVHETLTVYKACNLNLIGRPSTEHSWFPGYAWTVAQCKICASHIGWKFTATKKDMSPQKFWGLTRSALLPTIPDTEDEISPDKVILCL
UniProt Q99640, sequence (whole entry, looked up): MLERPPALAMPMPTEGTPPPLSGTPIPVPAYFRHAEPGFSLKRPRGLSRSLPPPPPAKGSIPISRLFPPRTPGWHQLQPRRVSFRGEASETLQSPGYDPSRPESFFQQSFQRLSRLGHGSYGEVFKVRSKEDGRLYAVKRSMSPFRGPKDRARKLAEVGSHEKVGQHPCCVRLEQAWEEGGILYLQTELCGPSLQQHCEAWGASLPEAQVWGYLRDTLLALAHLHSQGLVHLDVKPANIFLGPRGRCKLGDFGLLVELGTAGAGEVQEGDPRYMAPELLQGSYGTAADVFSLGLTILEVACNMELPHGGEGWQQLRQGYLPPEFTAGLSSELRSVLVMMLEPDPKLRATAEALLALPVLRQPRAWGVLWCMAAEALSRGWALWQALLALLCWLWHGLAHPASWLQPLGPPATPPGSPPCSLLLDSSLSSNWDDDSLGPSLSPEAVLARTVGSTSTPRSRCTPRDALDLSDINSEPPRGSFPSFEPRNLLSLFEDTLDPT
UniProt P50613, sequence (whole entry, looked up): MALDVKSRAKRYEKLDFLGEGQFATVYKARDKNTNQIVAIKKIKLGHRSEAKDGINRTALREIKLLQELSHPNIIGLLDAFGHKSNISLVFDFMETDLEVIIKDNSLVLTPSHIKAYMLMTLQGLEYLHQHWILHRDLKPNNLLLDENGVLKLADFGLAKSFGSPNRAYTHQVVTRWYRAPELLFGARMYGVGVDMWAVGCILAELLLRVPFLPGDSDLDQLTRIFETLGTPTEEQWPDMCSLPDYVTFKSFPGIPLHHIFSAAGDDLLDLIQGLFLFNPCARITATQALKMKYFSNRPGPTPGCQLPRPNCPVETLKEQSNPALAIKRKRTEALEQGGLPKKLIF
UniProt P06493, sequence (whole entry, looked up): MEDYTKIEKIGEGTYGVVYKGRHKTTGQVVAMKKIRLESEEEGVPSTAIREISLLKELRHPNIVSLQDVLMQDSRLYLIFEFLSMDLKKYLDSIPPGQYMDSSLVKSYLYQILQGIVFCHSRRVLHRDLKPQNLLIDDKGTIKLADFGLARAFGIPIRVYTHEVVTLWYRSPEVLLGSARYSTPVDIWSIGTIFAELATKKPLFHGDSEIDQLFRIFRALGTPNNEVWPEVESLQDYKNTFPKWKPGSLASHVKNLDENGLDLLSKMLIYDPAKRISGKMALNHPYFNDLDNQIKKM
UniProt P22455, sequence (whole entry, looked up): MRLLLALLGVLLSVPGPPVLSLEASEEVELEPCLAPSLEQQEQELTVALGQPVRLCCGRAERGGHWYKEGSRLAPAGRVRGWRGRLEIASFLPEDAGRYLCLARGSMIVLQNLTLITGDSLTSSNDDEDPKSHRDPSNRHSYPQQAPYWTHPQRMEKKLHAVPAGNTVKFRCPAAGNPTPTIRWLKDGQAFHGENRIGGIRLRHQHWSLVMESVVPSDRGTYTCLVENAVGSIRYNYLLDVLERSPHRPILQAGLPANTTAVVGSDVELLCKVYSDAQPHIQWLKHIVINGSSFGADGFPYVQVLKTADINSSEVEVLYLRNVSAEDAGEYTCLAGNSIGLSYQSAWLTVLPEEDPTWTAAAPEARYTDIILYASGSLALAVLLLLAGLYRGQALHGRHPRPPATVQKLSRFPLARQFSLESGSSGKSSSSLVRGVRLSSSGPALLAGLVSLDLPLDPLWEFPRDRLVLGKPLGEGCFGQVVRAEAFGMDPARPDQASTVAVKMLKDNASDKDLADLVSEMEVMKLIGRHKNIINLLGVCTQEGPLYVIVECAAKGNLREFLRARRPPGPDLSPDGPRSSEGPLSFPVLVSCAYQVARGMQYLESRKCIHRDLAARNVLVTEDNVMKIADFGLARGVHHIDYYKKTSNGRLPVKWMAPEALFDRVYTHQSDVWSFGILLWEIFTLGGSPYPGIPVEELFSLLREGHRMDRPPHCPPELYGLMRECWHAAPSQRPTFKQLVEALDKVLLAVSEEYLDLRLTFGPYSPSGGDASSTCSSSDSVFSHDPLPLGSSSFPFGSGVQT
UniProt Q13043, sequence (whole entry, looked up): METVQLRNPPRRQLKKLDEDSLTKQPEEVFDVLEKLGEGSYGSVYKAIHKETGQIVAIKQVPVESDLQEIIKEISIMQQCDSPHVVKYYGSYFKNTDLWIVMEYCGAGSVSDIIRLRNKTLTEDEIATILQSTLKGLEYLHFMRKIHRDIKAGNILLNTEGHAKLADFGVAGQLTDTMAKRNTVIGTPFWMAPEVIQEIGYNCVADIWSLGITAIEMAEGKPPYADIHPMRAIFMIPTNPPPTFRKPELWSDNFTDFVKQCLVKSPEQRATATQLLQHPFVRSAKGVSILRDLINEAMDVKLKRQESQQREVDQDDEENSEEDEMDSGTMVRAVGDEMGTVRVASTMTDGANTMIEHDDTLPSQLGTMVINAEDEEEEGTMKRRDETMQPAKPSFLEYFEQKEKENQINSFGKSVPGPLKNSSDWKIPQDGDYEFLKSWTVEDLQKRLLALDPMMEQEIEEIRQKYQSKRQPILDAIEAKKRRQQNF
UniProt Q86YV6, sequence (whole entry, looked up): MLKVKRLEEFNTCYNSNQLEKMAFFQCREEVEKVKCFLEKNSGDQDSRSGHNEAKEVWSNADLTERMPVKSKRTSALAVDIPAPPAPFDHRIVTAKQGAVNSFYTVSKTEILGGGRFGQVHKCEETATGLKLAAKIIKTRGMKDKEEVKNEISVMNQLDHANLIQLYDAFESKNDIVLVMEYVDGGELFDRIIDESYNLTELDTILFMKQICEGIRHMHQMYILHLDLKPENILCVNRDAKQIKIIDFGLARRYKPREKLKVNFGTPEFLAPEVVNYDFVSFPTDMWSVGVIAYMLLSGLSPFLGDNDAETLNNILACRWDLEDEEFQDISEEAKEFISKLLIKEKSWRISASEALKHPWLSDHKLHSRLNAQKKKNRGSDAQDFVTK

Block 1 — effect on: thermal unfolding; technique: differential scanning fluorimetry; tested at: 5.5 µM; direction: higher = more unfolded; endpoint: SYPRO Orange fluorescence
SMILES: C[C@@H]1CN(c2ccc(-c3cc(C(=O)NCCOCCOCCOCCOCCNC(=O)/C=C/c4[nH]cc(C(=O)N[C@@H](CC(N)=O)c5ccc(F)c(Cl)c5)c4-c4ccc(Cl)cc4F)ccc3F)cc2NC(=O)c2c[nH]c(=O)cc2C(F)(F)F)C[C@H](C)N1C
DCAF1: DDB1- and CUL4-associated factor 1 (DCAF1, Homo sapiens, UniProt Q9Y4B6)
UniProt Q9Y4B6, sequence (whole entry, looked up): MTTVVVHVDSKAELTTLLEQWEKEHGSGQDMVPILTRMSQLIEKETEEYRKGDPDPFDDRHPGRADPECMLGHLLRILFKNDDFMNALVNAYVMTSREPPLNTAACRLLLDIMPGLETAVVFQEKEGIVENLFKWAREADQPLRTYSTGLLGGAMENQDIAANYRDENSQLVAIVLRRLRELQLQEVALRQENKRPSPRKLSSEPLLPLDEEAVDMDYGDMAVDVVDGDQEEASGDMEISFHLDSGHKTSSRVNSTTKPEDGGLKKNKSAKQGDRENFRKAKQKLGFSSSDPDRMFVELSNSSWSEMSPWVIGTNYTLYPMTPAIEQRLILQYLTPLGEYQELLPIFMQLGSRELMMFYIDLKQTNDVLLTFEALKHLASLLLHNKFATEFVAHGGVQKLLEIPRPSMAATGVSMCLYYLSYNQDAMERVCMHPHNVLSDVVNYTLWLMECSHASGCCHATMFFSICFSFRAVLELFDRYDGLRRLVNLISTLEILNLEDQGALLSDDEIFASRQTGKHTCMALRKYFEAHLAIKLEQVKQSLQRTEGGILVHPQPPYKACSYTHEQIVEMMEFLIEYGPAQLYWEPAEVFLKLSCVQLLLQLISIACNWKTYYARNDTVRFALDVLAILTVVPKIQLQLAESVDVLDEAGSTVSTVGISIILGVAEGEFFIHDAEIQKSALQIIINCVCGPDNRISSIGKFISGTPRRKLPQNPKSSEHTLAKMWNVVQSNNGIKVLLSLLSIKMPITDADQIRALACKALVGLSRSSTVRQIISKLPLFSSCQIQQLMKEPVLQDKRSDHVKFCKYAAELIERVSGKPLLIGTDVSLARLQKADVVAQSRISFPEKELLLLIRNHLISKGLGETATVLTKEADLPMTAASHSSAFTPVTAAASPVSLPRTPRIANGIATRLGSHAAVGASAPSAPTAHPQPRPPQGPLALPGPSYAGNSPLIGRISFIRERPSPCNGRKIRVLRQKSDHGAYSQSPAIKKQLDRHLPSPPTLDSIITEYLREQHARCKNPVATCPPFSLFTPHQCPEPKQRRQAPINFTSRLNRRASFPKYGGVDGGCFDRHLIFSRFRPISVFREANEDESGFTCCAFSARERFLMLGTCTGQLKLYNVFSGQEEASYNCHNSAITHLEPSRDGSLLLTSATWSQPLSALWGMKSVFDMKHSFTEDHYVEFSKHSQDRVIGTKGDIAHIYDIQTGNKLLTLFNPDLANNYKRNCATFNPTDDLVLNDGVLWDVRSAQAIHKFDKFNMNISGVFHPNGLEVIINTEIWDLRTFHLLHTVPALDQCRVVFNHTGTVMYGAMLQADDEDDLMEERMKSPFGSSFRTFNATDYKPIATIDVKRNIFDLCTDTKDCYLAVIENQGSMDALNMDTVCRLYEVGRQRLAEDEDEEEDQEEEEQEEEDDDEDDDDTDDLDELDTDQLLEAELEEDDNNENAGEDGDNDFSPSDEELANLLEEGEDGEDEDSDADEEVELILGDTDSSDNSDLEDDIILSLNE
WDR5: WD repeat-containing protein 5 (WDR5, Homo sapiens, UniProt P61964)
DCAF1; 30.6 °C: 9570 a.u.
DCAF1; 82.01 °C: 43100 a.u.
WDR5; 62.61 °C: 14600 a.u.
DCAF1; 37.4 °C: 10700 a.u.
DCAF1; 66.61 °C: 59200 a.u.
DCAF1; 42.8 °C: 12400 a.u.
WDR5; 78.21 °C: 35000 a.u.
WDR5; 48.8 °C: 16000 a.u.
DCAF1; 60.61 °C: 43600 a.u.
DCAF1; 43.4 °C: 12500 a.u.
DCAF1; 34.8 °C: 10200 a.u.

Block 2 — cell line: U-87 MG; tested at: concentration not given; reference: DMSO; endpoint: log2 fold change
SMILES: CCN1/C(=C/C=C2\CCCC(/C=C/C3=[N+](CC)c4ccccc4C3(C)C)=C2NCCCCCCCCN2CCC(Nc3nc4ccccc4n3Cc3ccc(F)cc3)CC2)C(C)(C)c2ccccc21
item: MYLIP mRNA: 2.09
item: ALDH7A1 mRNA: -1.17
item: ARPIN mRNA: -0.971
item: IMPA2 mRNA: -1.83
item: SALL1 mRNA: -0.86
item: KLF5 mRNA: 1.7
item: PDRG1 mRNA: 1.1
item: INCENP: -1.72
item: FSBP mRNA: 0.965
item: KIF23 mRNA: -2.13
item: HIRIP3 mRNA: -0.816
item: TUBE1 mRNA: 1.11
item: PRSS23 mRNA: -1.59
item: FANCC mRNA: -0.91
item: SNRPE mRNA: -0.857

Block 3 — technique: NanoBRET; tested at: 1 µM; endpoint: target occupancy
Structure (SMILES): COc1cc(-c2nc3ccc(C(=O)NCCCN(C)C)cc3n2C2CCC2)cc(OC)c1OC
ULK1 (Homo sapiens, UniProt O75385): -0.69%
NEK2 (Homo sapiens, UniProt P51955): -12.9%
MYLK4 (Homo sapiens, UniProt Q86YV6): -6.37%
ABL2 (Homo sapiens, UniProt P42684): 2.61%
RIOK2 (Homo sapiens, UniProt Q9BVS4): -3.74%
STK32B (Homo sapiens, UniProt Q9NY57): 1.12%
CDK7 (Homo sapiens, UniProt P50613): -0.83%
LIM domain kinase 1 (LIMK1, Homo sapiens, UniProt P53667): 0.2%
NIM1K (Homo sapiens, UniProt Q8IY84): 1.92%
MAP3K3 (Homo sapiens, UniProt Q99759): 1.2%
PHKG1 (Homo sapiens, UniProt Q16816): -9.63%
Cyclin-dependent kinase 1, with cyclin B1 (CDK1, Homo sapiens, UniProt P06493): 2.41%
FGFR4 (Homo sapiens, UniProt P22455): -1.83%
MAP3K4 (Homo sapiens, UniProt Q9Y6R4): 1.22%
STK4 (Homo sapiens, UniProt Q13043): 4.75%

Other studies, line by line
Cc1ccc(O)c(C)c1-c1cnc2[nH]c(-c3cnc(N4CCC(CN5CCN(c6ccc7c(c6)C(=O)N(C6CCC(=O)NC6=O)C7=O)CC5)CC4)nc3)cc2c1C#N (stereo not drawn) — DC50 (PKMYT1 (Homo sapiens, UniProt Q99640); protein degradation, degrader, immunoblotting; HCC1569; 24 h): 1 nM
Cc1ccc(O)c(C)c1-c1cnc2[nH]c(-c3cnc(N4CCC5(CC4)CC(N4CCN(c6ccc(N[C@@H]7CCC(=O)NC7=O)cc6F)CC4)CO5)nc3)cc2c1C#N (single isomer, unassigned) — inhibition (Protein cereblon (CRBN, Homo sapiens, UniProt Q96SW2); binding; 1111.11 nM): 10.5% and 11.8%
Cc1ccc(O)c(C)c1-c1cnc2[nH]c(-c3cnc(N4CCC(CCN5CCN(c6ccc(NC7CCC(=O)NC7=O)cc6F)CC5)CC4)nc3)cc2c1C#N (stereo not drawn) — AUC(0-t) (female CD-1 mouse, plasma; oral, 10 mg/kg): 1790 ng·h/mL
Cc1ncc(-c2cc3c(C#N)c(-c4c(C)ccc(O)c4C)cnc3[nH]2)cn1 — recovery (Caco-2; permeability; 2 µM, 2 h, pH 7.4): 48.1%

For quick reference, copied from above (block 2):
item: PDRG1 mRNA: 1.1
item: FSBP mRNA: 0.965
item: SNRPE mRNA: -0.857
item: HIRIP3 mRNA: -0.816
item: SALL1 mRNA: -0.86
